Results from different studies.
Numbered parts are unrelated; each lists some results of a single study. Values joined by “and” are separate records of one study, mostly repeats; a detail may differ.
Sequence of UniProt P10721 (whole entry, unmodified, looked up): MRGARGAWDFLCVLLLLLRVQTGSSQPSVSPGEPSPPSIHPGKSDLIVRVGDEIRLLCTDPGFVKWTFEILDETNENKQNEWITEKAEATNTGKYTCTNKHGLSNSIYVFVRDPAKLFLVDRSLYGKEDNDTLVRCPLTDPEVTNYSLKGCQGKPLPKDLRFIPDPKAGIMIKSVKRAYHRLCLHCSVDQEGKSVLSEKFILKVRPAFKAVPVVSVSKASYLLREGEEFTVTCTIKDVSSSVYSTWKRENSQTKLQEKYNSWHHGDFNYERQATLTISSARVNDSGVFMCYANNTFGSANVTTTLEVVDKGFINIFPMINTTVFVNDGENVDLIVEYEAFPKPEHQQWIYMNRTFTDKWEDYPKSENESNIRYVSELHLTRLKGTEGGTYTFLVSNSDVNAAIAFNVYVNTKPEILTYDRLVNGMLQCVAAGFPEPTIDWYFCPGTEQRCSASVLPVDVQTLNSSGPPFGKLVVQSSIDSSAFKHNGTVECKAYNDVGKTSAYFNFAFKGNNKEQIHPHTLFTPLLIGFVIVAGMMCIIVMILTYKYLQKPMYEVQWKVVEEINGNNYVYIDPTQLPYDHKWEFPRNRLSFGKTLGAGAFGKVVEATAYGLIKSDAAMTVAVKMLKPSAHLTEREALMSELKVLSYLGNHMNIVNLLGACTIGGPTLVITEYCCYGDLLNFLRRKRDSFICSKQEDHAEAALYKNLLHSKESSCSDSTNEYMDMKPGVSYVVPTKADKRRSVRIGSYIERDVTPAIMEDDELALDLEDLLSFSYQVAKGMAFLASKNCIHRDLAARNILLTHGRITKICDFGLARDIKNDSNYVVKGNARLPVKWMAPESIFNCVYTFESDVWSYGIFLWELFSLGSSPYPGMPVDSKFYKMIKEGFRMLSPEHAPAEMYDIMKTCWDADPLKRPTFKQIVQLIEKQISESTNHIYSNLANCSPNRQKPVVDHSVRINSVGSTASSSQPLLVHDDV
Sequence of UniProt P50750 (whole entry, looked up): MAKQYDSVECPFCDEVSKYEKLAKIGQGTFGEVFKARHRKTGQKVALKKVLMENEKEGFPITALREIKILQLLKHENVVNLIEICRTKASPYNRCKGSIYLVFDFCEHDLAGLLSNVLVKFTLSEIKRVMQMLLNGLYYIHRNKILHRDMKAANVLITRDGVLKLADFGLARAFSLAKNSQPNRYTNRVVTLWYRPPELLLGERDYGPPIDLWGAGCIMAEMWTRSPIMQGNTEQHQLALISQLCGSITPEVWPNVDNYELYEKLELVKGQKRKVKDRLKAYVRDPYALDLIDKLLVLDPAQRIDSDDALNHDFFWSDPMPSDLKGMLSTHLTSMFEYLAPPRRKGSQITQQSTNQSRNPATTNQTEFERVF
Sequence of UniProt Q13557 (whole entry, looked up): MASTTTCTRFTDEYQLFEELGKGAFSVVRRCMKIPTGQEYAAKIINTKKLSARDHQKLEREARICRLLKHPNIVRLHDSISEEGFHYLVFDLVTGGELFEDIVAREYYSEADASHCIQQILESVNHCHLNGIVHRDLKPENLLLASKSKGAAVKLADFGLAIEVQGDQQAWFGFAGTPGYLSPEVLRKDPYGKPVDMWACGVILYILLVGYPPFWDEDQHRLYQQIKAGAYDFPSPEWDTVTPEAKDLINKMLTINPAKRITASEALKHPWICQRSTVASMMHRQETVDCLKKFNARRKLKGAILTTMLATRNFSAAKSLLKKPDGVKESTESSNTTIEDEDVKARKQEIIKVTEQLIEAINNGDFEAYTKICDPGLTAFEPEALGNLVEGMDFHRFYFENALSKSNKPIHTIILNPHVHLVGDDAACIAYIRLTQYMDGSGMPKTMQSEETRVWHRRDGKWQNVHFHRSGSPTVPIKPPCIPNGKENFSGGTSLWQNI
Sequence of UniProt P54756 (whole entry, looked up): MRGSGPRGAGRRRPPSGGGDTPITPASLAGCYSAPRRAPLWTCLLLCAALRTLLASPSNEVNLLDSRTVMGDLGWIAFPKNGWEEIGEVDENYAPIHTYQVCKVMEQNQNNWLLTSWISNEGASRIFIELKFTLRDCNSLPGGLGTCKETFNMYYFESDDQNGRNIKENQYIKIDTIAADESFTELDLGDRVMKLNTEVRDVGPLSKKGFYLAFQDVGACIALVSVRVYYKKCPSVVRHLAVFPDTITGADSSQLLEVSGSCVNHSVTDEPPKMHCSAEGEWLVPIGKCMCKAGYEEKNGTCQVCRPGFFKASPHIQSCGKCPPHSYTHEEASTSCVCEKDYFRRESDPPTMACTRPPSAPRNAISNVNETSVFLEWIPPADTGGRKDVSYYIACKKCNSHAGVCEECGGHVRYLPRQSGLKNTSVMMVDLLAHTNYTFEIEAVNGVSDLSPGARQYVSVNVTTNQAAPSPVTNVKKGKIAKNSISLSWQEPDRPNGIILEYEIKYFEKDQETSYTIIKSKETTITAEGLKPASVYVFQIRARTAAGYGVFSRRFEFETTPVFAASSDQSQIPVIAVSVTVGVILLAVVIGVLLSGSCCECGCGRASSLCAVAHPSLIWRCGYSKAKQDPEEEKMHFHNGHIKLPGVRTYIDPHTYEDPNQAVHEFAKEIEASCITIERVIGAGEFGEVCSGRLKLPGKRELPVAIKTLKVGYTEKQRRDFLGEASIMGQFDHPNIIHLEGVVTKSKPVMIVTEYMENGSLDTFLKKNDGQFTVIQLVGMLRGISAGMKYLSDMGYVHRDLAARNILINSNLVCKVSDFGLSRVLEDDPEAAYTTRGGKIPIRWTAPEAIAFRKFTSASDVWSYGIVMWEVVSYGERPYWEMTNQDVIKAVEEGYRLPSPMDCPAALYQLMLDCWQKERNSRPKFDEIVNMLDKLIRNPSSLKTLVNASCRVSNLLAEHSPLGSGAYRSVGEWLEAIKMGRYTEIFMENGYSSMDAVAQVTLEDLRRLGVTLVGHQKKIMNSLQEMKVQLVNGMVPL
Sequence of UniProt Q9Y243 (whole entry, looked up): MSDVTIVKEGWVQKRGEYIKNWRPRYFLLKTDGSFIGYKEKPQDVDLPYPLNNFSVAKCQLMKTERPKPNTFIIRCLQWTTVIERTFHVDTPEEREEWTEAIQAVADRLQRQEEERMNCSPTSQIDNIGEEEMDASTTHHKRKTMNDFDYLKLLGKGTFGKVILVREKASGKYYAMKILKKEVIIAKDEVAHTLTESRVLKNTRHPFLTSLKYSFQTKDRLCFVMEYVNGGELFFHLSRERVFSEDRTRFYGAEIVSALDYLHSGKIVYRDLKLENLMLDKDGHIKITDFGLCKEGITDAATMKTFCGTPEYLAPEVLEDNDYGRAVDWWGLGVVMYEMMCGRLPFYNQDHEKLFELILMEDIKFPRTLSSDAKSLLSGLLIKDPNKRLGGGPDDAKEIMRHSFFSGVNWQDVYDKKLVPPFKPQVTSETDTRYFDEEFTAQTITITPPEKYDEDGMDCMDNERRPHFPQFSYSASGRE
Sequence of UniProt O14757 (whole entry, looked up): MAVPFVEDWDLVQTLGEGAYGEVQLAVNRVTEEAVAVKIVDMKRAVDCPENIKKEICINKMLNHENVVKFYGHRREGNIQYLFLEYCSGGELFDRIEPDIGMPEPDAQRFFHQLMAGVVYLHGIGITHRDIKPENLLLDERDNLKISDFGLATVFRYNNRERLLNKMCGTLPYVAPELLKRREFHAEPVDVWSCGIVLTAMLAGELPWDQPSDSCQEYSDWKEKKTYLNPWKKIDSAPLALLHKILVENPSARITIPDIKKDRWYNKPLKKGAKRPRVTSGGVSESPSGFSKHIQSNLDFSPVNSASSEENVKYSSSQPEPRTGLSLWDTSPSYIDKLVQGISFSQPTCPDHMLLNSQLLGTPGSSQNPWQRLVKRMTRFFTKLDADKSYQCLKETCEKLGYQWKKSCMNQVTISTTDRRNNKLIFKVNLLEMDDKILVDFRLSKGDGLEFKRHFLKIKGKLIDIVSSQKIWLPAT
Sequence of UniProt Q9HBH9 (whole entry, looked up): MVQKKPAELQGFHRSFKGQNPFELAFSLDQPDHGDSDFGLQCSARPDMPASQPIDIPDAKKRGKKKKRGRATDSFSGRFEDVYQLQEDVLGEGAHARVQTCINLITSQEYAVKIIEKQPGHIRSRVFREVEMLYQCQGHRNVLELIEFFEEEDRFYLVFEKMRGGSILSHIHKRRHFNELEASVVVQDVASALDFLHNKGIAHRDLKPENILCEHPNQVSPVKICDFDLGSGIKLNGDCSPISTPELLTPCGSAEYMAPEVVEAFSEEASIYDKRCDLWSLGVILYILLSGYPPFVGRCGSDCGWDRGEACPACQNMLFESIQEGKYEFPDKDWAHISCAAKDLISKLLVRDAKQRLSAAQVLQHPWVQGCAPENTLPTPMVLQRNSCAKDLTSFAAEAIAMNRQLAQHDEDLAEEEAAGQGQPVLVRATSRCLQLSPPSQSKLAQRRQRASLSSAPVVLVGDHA

Series 1
Structure (SMILES): Cc1cc2c(C(N)=O)c(N)n(-c3c(C)ccc(O)c3C)c2nc1C
tested on | assay | setting | inhibition
SRC (Homo sapiens, UniProt P12931) | kinase activity, inhibitor, HTRF | 1.111 µM | 99.7%
RKO | cell proliferation | 10000 nM | 100%
MKN-1 | cell proliferation | 1111.11 nM | 98.6%
NCI-H1568 | cell proliferation | 4.572 nM | 4.49% and 5.91%
HuCCT-1 | cell proliferation | 1.52 nM | -2.31% and 1.39% and 0.37%
NCI-H1568 | cell proliferation | 123.5 nM | 7.51% and 9.88%

Series 2
Structure (SMILES): CCCCN(CCCC)C(=O)CN1C[C@@H](c2cc(OC)c3c(c2)OCO3)[C@H](C(=O)O)[C@H]1CC(C)(C)CCC
Observed: cell-free assay
Technique: competition with immobilised ligand
Tested at: 1 µM
target | remaining binding
MAP2K2 (Homo sapiens, UniProt P36507) | 98%
BRAF (Homo sapiens, UniProt P15056) | 92.3%
NTRK3 (Homo sapiens, UniProt Q16288) | 87.6%
PI4KB (Homo sapiens, UniProt Q9UBF8) | 97.6%
CSNK1G3 (Homo sapiens, UniProt Q9Y6M4) | 100%
KIT (Homo sapiens, UniProt P10721, D816H) | 78.5%
KIT (Homo sapiens, UniProt P10721, D816V) | 95.8%
TESK1 (Homo sapiens, UniProt Q15569) | 94.3%
BRSK2 (Homo sapiens, UniProt Q8IWQ3) | 98.3%
HUNK (Homo sapiens, UniProt P57058) | 96.8%
CAMK2D (Homo sapiens, UniProt Q13557) | 99.9%
TSSK3 (Homo sapiens, UniProt Q96PN8) | 100%

Series 3
Organism: Sarcocystis neurona
Observed: parasite growth
Tested at: 10 µM
Time: 96 h
Notes: first screen
Relative to: untreated
SMILES | log2 fold change
O=C(c1ccc(OCCN2CCCCC2)cc1)c1c(-c2ccc(O)cc2)sc2cc(O)ccc12 | -0.27
COc1cc(C)nc(-n2nc(C)cc2OC)n1 | -0.1
O=C1c2cccc3c2[C@H](CCC3)CN1[C@@H]1CN2CCC1CC2 | -0.44
COc1cc2c(cc1OC)C(=O)C(CC1CCN(Cc3ccccc3)CC1)C2 (centres unmarked) | 0.11
CC(=O)OCC(=O)[C@@]12OC(C)(C)O[C@@H]1C[C@H]1[C@@H]3C[C@H](F)C4=CC(=O)C=C[C@]4(C)[C@@]3(F)[C@@H](O)C[C@@]12C | 0.19
N[C@@H](Cc1cc(I)c(Oc2cc(I)c(O)c(I)c2)c(I)c1)C(=O)O | 0.29
CS(=O)(=O)c1ccc(C2=C(c3ccccc3)C(=O)OC2)cc1 | -0.0125
COc1cc([C@@H]2c3cc4c(cc3[C@H](O)[C@H]3COC(=O)[C@H]23)OCO4)cc(OC)c1OC | -1.36
COc1ccc2c(c1)c(CC(=O)O)c(C)n2C(=O)c1ccc(Cl)cc1 | 0.25
CN(C)CCOC(C)(c1ccccc1)c1ccccn1 (centres unmarked) | 0.11
C[C@H]1C[C@H]2[C@@H]3CCC4=CC(=O)C=C[C@]4(C)[C@@]3(F)[C@@H](O)C[C@]2(C)[C@@]1(O)C(=O)CO | 0.31
CNS(=O)(=O)Cc1ccc2[nH]cc(CCN(C)C)c2c1 | 0.0093

Series 4
SMILES: O=C1NC(=O)c2c1c1c3ccccc3[nH]c1c1[nH]c3cc(Br)ccc3c21
Observed: enzyme activity
Mode: inhibitor
Tested at: 0.5 µM
Relative to: control
target | remaining activity
CHEK1 (Homo sapiens, UniProt O14757) | 79.7%
PRKCD (Homo sapiens, UniProt Q05655) | 99.1%
MAPK12 (Homo sapiens, UniProt P53778) | 100%
KIT (Homo sapiens, UniProt P10721) | 128%
MAP3K10 (Homo sapiens, UniProt Q02779) | 70.4%
WNK2 (Homo sapiens, UniProt Q9Y3S1) | 92.1%
PLK2 (Homo sapiens, UniProt Q9NYY3) | 93.7%
BTK (Homo sapiens, UniProt Q06187) | 74.8%
MAPK13 (Homo sapiens, UniProt O15264) | 99.1%
MAP4K2 (Homo sapiens, UniProt Q12851) | 74.1%
EPHA5 (Homo sapiens, UniProt P54756) | 90.5%
CSNK1A1 (Homo sapiens, UniProt P48729) | 95.4%
MAP2K6 (Homo sapiens, UniProt P52564) | 94.2%
LRRK2 (Homo sapiens, UniProt Q5S007) | 49.8%
NEK4 (Homo sapiens, UniProt P51957) | 89%
LYN (Homo sapiens, UniProt P07948) | 93.2%
PRKCI (Homo sapiens, UniProt P41743) | 96.2%
Cyclin-dependent kinase 9, with cyclin T1 (CDK9, Homo sapiens, UniProt P50750) | 87.5%
CSNK2A1 (Homo sapiens, UniProt P68400) | 93.1%
AKT3 (Homo sapiens, UniProt Q9Y243) | 91.1%
MKNK2 (Homo sapiens, UniProt Q9HBH9) | 44%
IRAK4 (Homo sapiens, UniProt Q9NWZ3) | 76.2%
PRKG1 (Homo sapiens, UniProt Q13976) | 76%

Some of these lines once more (series 4):
target | remaining activity
AKT3 (Homo sapiens, UniProt Q9Y243) | 91.1%
EPHA5 (Homo sapiens, UniProt P54756) | 90.5%
CSNK2A1 (Homo sapiens, UniProt P68400) | 93.1%
BTK (Homo sapiens, UniProt Q06187) | 74.8%
CHEK1 (Homo sapiens, UniProt O14757) | 79.7%
